Published values pooled from the literature.
Every numbered part comes from another study and shows a few of its results, in no order. Substitutions count along the parent as printed. pIC50: −log10 of the molar value.
Chain of UniProt P46734 (whole entry, looked up): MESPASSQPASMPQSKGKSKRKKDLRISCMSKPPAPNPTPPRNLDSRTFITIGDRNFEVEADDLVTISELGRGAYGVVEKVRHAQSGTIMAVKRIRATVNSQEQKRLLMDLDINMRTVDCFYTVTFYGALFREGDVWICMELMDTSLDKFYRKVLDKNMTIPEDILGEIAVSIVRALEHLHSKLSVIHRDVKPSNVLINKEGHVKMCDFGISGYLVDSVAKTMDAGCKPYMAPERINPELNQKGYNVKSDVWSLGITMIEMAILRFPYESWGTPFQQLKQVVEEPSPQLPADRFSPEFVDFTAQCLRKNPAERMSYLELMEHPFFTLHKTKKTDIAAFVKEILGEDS

Block 1
Target: CCNB3, cyclin fold, Cln2 fusion (human)
Method: yeast growth competition, sequencing
Matrix: yeast
Setting: strong parent motif
Baseline: not given
Direction: higher = stronger binding
Starting sequence: viral docking peptide; TSVRRALFTGGSD; partner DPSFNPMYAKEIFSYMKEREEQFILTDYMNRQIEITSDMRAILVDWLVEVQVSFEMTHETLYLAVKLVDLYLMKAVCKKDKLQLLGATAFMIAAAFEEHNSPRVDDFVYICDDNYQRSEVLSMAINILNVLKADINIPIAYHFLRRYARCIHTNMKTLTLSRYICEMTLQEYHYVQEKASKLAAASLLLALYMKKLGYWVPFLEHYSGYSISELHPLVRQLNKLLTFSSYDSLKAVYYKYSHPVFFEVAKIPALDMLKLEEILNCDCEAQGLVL
For `S12K`, “normalised enrichment score” read 1.05.
`R5W`: “normalised enrichment score” 0.4.
`L7C` — result for “normalised enrichment score”: 0.0718.
`T9Y`: “normalised enrichment score” 1.54.
`S2Y`: “normalised enrichment score” 1.6.
Under “normalised enrichment score”, `A6Q` is recorded as 2.55.
For `G11L`, “normalised enrichment score” read 1.58.
Under “normalised enrichment score”, `R4C` is recorded as 0.489.

Block 2
Target: UDP-N-acetylglucosamine--peptide N-acetylglucosaminyltransferase 110 kDa subunit (OGT, Homo sapiens, UniProt O15294)
Observed: binding
Method: phage display NGS
Molecule type: peptide
Concentration: concentration not given
Setting: panning round 2
Baseline: input library
Construct (O15294 1-1046): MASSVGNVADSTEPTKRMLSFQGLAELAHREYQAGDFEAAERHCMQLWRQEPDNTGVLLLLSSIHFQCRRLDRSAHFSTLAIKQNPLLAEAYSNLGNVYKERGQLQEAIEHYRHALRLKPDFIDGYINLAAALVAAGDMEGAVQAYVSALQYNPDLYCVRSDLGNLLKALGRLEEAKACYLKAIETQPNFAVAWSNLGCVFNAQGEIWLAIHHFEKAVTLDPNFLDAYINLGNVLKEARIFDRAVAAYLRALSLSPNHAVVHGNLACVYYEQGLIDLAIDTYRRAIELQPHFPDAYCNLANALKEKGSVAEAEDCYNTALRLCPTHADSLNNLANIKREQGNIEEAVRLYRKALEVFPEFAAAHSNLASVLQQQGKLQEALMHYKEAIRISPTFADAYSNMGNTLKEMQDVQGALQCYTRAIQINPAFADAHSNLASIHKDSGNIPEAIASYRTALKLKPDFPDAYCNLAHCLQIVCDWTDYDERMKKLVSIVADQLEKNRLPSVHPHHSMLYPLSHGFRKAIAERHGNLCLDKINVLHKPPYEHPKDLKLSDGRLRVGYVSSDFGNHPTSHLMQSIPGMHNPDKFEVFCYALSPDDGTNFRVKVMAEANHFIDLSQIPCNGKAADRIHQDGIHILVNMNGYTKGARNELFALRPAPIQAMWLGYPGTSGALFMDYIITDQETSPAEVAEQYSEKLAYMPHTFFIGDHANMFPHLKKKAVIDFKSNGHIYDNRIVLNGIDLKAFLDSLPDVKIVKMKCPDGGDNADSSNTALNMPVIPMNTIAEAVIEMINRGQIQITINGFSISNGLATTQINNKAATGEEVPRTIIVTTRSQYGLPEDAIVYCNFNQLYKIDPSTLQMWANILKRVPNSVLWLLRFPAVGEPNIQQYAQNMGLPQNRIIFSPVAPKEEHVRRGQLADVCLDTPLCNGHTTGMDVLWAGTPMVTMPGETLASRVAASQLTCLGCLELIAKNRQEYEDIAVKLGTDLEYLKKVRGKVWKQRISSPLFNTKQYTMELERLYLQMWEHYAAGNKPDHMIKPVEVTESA
`RHLSHVHNVHSSNSV`: “enrichment fold change” 4.07.
`QVFWPQYQINIPKLN`: “enrichment fold change” 14.2.
For `GMTHQYHLHHDSGFQ`, “enrichment fold change” read 6.2.
For `DHAHRHWYAMRNHHT`, “enrichment fold change” read 6.03.
`HADHKSPLFNHNTQH`: “enrichment fold change” 4.54.
Under “enrichment fold change”, `HPTAHYHHQAIRHFQ` is recorded as 3.93.
Under “enrichment fold change”, `RMDHTQRPLWHQHHN` is recorded as 6.68.
Under “enrichment fold change”, `GHHTHREYGYPSYQH` is recorded as 8.99.

Block 3
Target: tungstate, free oxyanion
Method: microfluidic competitive inhibition
Matrix: in vitro, cell-free expressed
Concentration: not given
Setting: derived from inhibition constants, unchanged parent 2230 nM
Direction: lower = stronger binding
Starting sequence: PafA, mature enzyme, eGFP fusion (Elizabethkingia meningoseptica, UniProt Q9KJX5); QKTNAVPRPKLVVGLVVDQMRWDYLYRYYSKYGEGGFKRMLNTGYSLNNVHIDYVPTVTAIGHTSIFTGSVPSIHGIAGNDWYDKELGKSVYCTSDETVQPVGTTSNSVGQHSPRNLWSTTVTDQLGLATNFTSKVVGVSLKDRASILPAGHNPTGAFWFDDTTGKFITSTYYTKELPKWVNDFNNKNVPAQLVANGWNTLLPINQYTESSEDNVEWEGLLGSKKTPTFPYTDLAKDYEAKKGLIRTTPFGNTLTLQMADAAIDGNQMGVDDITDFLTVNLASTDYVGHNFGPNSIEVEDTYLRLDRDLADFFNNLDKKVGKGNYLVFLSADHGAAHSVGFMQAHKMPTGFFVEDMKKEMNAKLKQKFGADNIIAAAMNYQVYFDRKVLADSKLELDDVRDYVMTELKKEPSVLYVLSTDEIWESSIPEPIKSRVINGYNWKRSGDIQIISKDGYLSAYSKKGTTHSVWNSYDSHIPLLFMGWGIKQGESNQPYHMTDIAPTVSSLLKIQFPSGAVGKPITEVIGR
`S425G` — result for “oxyanion analog dissociation constant”: 2.37 µM.
`K409G`: “oxyanion analog dissociation constant” 2.19 µM.
For `G292A`, “oxyanion analog dissociation constant” read 2.26 µM.
For `L220V`, “oxyanion analog dissociation constant” read 2.64 µM.
For `R8V`, “oxyanion analog dissociation constant” read 2.31 µM.
`A5V` — result for “oxyanion analog dissociation constant”: 2.14 µM.
`D355G` — result for “oxyanion analog dissociation constant”: 1.78 µM.
`L193G`: “oxyanion analog dissociation constant” 2.12 µM.

Single results of other studies
The pIC50 of COC(=O)c1cc(N(C)C(=O)c2ccn3ncc(-c4ccc(C(=O)O)cc4)c3c2)ccc1Cl is reported as less than 4.52 (Dual specificity mitogen-activated protein kinase kinase 3 (MAP2K3, Homo sapiens, UniProt P46734); enzyme activity, inhibitor).
